{"data": "Published values pooled from the literature", "note": "Protocols differ between the studies behind these lines. “And” joins repeats or separate records; there may be more than shown. ± marks the error that the study gave."}
{"SMILES": "C1=C/COCc2cc(ccc2OCCN2CCCC2)Nc2nccc(n2)-c2cccc(c2)COC/1", "test": "LC-MS/MS", "test system": "Sprague-Dawley rat, male, plasma", "conditions": "oral, 36 mg/kg, with: isavuconazole 20 mg/kg oral", "AUC(0-t)": "10800 ± 8160 ng·h/mL"}
{"SMILES": "CN1CCC[C@H](CN2c3ccccc3Sc3ccccc32)C1.Cl", "test system": "Wistar rat female, plasma", "conditions": "oral, 16 mg/kg", "AUC(0-t)": "4090 ng·h/mL"}
{"SMILES": "CCc1c(-c2ccccc2)c(-c2ccccc2)nn1-c1ccccc1-c1cccc(OCC(=O)O)c1", "test system": "Sprague-Dawley rat", "conditions": "intravenous, dose not given", "AUC(0-t)": "3250 ng·h/mL and 3090 ng·h/mL and 2390 ng·h/mL"}
{"SMILES": "CCCCCOC(=O)Nc1nc(=O)n([C@@H]2O[C@H](C)[C@@H](O)[C@H]2O)cc1F", "test system": "Sprague-Dawley rat, plasma", "conditions": "oral, 200 mg/kg, with: chitooligosaccharide 20 min before glucosamine 250 mg/kg", "AUC(0-t)": "12200 ± 1100 ng·h/mL"}
{"SMILES": "COc1cccc(-c2n[nH]c(SCc3ccccn3)n2)c1OC", "test system": "Sprague-Dawley rats, female, plasma", "conditions": "intravenous, 1.0 mg/kg, single dose", "AUC(0-t)": "2110 ng·h/mL"}
{"SMILES": "C=CC(=O)N1CCC([C@@H]2CCNc3c(C(N)=O)c(-c4ccc(Oc5ccccc5)cc4)nn32)CC1", "test system": "Sprague-Dawley rats, plasma", "conditions": "oral, 16 mg/kg, with: posaconazole 40 mg/kg", "AUC(0-t)": "2880 ± 581 ng·h/mL"}
{"SMILES": "C=CC(=O)N1CCC(Oc2cc3c(Nc4ccc(Cl)c(Cl)c4F)ncnc3cc2OC)CC1", "test system": "male Sprague-Dawley rats, plasma", "conditions": "oral, 2 mg/kg", "AUC(0-t)": "3810 ± 511 ng·h/mL"}
{"SMILES": "Cc1ccc2c(c1)C(=O)[C@]1(O)CCN(c3ccc4nc(C)ccc4c3)C1=N2.Cl", "test system": "rat", "conditions": "subcutaneous, 30 mg/kg", "AUC(0-t)": "15.4 µM·h"}
{"SMILES": "O=C1c2ccncc2C(=O)c2c1[nH]c1ccccc21", "test system": "Sprague-Dawley rat female, plasma", "conditions": "intravenous, 1 mg/kg", "AUC(0-t)": "1.29 ± 0.702 µM·h"}
{"SMILES": "Cc1cccc(CNC(=O)c2cn(CCNC(=O)c3ccccc3Sc3c([N+](=O)[O-])ncn3C)c3cc4c(cc3c2=O)OC(F)(F)O4)n1", "test system": "Sprague-Dawley rat, male, whole blood", "conditions": "intramuscular, 10 mg/kg of parent compound", "AUC(0-t)": "122 ± 74.5 ng·h/mL"}
{"SMILES": "Cc1ccc(S(=O)(=O)n2cc3c4c2C(=O)C(NCc2ccc(Cl)cc2)=CC4=NCC3)cc1", "test system": "Sprague-Dawley rat, plasma", "conditions": "intravenous, 5 mg/kg, individual rat", "AUC(0-t)": "1770 ng·h/mL and 2060 ng·h/mL"}
{"SMILES": "Cc1cccc(CNC(=O)c2cn(CCNC(=O)c3ccccc3S)c3cc4c(cc3c2=O)OC(F)(F)O4)n1", "test system": "Sprague-Dawley rat, male, plasma", "conditions": "intramuscular, 10 mg/kg of parent compound", "AUC(0-t)": "145 ± 22.3 ng·h/mL"}
{"SMILES": "O=C(Nc1ccc(OC(F)(F)Cl)cc1)c1cnc(N2CC[C@@H](O)C2)c(-c2ccn[nH]2)c1", "test system": "Sprague-Dawley rat, male, plasma", "conditions": "oral, 8 mg/kg", "AUC(0-t)": "1910 ± 347 ng·h/mL"}
{"SMILES": "CC(=O)CC(c1ccccc1)c1c(O)c2ccccc2oc1=O (stereo not shown)", "test system": "Sprague-Dawley rats, male, plasma", "conditions": "oral, 0.3 mg/kg/day, 1 week, without PNS", "AUC(0-t)": "29300 ± 2210 ng·h/mL"}
{"SMILES": "CSc1ccccc1C(=O)NCCn1cc(C(=O)NCc2cccc(C)n2)c(=O)c2cc3c(cc21)OC(F)(F)O3", "test system": "Sprague-Dawley rat, male, plasma", "conditions": "intravenous, 5 mg/kg of parent drug", "AUC(0-t)": "106 ± 7.7 ng·h/mL"}
{"SMILES": "O=C1C[C@@H](c2ccc(O)cc2)Oc2cc(O)cc(O)c21", "test system": "Sprague-Dawley rat, plasma", "conditions": "intravenous bolus, 1 mg/kg", "AUC(0-t)": "25300 ± 2190 ng·h/mL"}
